Experimental data from different studies.
Each numbered part is a random draw from the data of one study; scales do not carry over between parts. Changes are numbered by the printed parent chain.
UniProt O15294, sequence (whole entry, looked up): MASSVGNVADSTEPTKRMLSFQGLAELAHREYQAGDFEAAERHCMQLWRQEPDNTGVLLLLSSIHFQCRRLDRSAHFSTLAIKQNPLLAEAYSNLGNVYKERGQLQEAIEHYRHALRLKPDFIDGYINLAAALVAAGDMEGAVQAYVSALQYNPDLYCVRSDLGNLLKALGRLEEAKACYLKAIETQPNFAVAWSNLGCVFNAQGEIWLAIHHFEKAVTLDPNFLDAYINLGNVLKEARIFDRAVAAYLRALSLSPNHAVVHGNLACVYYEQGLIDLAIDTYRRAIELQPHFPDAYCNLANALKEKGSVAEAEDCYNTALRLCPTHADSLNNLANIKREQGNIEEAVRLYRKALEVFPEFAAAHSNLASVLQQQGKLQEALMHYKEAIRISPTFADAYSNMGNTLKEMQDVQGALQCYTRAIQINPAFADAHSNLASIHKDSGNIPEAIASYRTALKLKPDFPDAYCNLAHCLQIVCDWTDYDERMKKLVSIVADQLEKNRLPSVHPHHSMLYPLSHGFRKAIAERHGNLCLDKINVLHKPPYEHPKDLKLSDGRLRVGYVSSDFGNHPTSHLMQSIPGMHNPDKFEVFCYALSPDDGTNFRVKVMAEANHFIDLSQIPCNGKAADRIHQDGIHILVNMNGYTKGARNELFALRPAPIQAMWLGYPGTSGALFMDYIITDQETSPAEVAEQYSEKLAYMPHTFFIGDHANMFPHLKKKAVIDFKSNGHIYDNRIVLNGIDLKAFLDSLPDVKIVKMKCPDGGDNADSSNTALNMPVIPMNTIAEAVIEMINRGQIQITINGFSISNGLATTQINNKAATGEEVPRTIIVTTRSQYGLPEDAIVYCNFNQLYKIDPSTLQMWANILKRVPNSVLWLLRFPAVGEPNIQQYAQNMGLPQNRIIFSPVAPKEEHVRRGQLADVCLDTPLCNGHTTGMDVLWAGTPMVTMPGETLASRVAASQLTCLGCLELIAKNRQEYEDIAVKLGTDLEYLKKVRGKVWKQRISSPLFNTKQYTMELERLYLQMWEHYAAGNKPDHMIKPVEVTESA

Set 1
Target: BATF, bZIP domain (human)
Method: DHFR protein complementation
Matrix: yeast
Setting: single substitutions, most at no-binding floor
Relative to: wild-type JUN-FOS pair
Direction: higher = stronger binding
Starting sequence: JUN, bZIP domain (human); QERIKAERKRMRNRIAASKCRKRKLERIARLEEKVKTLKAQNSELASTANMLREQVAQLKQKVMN; partner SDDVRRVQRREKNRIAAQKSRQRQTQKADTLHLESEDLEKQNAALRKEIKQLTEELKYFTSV
`R30P` has a binding fitness of 0.0872 natural log.
For `L31E`, the binding fitness was 0.0671 natural log.
The binding fitness of `L45C` is reported as -1.14 natural log.
The binding fitness of `A29N` is reported as -0.0593 natural log.
`L59V` gave a binding fitness of 0.0703 natural log.
`L38F` gave a binding fitness of -0.562 natural log.
With `R30E` the binding fitness was 0.145 natural log.
`V56L` has a binding fitness of -0.0482 natural log.

Set 2
Target: RNA binding protein fox-1 homolog 2, RRM domain, GST-SBP tag (RBFOX2, Homo sapiens, UniProt O43251-10, residues 100-194)
Method: RNA Bind-n-Seq
Form: RNA
Matrix: in vitro
Tested at: 365 nM
Setting: natural RNA segment, single round, ends assumed
Relative to: no-protein control
Direction: higher = stronger binding
Target sequence (chain): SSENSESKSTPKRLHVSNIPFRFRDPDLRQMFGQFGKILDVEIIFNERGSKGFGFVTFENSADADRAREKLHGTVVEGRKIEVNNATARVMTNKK
`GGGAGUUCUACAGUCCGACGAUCUUUACAUUUGGAUUAGAAAUUUAACAUAGUAAUUCUUAAGUCUUUUGUCUGAUUUUUAAAGUACUUUCUUAUAAAUUUGGAUCAUGUUAUGAUUUGUAACAUUCACACAAUGGAAUUCUCGGGUGCCAA`: “RBNS enrichment (R)” 0.559.
`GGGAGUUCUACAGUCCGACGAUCUCUGGAGGCCAACAAGUCCCACGAUCGGCUGUCUGCGAUUGGGAGACCAGGAGAAGCCACACCGUAACUCAGUCUGAGUCCAAAGCCCGAGAAGCCAGGGGCCACCCUGUUGGAAUUCUCGGGUGCCAA` — result for “RBNS enrichment (R)”: 0.195.
`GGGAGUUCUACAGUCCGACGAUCUAAUUCUGAUCCUCUACCUGUAGGAGGACUUUGGUGUGAUCAUCCUUCUCCCAGGGCCCGGCUACCCAGGGAGGAGGAGUCUGGUGUAGCCAACAUUCCUGCCCUAACCCUGGAAUUCUCGGGUGCCAA` — result for “RBNS enrichment (R)”: 0.215.
`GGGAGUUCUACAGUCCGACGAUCUUUAUACUUUGUUCCUCCUGCCCAACAACUGUCAGUACUGAGAUCUGAAAUUAAAAUGACUUGUUUGCUUGAGUGUGUUGAUUUAUAAACAGCAAUGGUGGUGGGGUACAUGGAAUUCUCGGGUGCCAA`: “RBNS enrichment (R)” 1.99.
Under “RBNS enrichment (R)”, `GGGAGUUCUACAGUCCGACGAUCUUAUCUUUCUCUCUGCCAUUUGGAACUUUAUUCCCUAACCCAGGUUUUGCUGCUGUGAAACAGCGUUGAUGAACACUAAAUAUUAAUCUGAGAUAGCUGGAUUGUAUAUAUGGAAUUCUCGGGUGCCAA` is recorded as 0.284.
For `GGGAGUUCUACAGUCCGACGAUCCUACCUCCUGGCUUCUCUCCCUGCUGACGUGGCUCUUGUCCUGGAGCAGAGCAGUGCGUUGUUGGGAGAUGGAAAGUCUAUGCGUGGGUACCCUGUCUUCUUGCCUGUGGUGGAAUUCUCGGGUGCCAA`, “RBNS enrichment (R)” read 0.803.
`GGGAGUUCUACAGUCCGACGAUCGCUAUUUUUACCUAUGUAUUUAUCGUUCUUGAUCAUAAGCCGCUUAUUUAUAUCAUGUAUCUCUAAGGACCUAAAAGCACUUUAUGUAGUUUUUAAUUAAUCUUAAGAUCUGGAAUUCUCGGGUGCCAA` — result for “RBNS enrichment (R)”: 0.599.
`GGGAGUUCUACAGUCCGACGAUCUUAACCUAGUGCUAGAUAGUCAGCUGCUGUUGCAGGUAGAAAAGCUCACCAAUGCCACAUUUGUUCAUUCUGUUCAACCUGUUUUGACCUCCCAGGCAUCUGAACAGGAUUGGAAUUCUCGGGUGCCAA`: “RBNS enrichment (R)” 0.323.

Single results of other studies
`HVNYTTGHHTMSMH` — result for “enrichment fold change”: 5.71 (UDP-N-acetylglucosamine--peptide N-acetylglucosaminyltransferase 110 kDa subunit (OGT, Homo sapiens, UniProt O15294); binding, phage display NGS; peptide; concentration not given; relative to: input library).
With `PhoQ, residues 284 288 289 292 302 303 AEGLLW` the fold induction was 10.4 (PhoP, residues 12 14 15 18 19 VQGLL (Escherichia coli, UniProt P23836); Sort-seq, measured: YFP reporter; E. coli; PhoQ-PhoP variant library, with: 10 µM Mg2+; relative to: high Mg2+ state, higher = stronger signaling).

Excerpt of the above (single results of other studies):
With `PhoQ, residues 284 288 289 292 302 303 AEGLLW` the fold induction was 10.4 (PhoP, residues 12 14 15 18 19 VQGLL (Escherichia coli, UniProt P23836); Sort-seq, measured: YFP reporter; E. coli; PhoQ-PhoP variant library, with: 10 µM Mg2+; relative to: high Mg2+ state, higher = stronger signaling).
`HVNYTTGHHTMSMH` — result for “enrichment fold change”: 5.71 (UDP-N-acetylglucosamine--peptide N-acetylglucosaminyltransferase 110 kDa subunit (OGT, Homo sapiens, UniProt O15294); binding, phage display NGS; peptide; concentration not given; relative to: input library).
